Earlier results that unrelated publications cite.
Numbers after ± are the reported error.
Sequence of UniProt P21554 (whole entry, looked up): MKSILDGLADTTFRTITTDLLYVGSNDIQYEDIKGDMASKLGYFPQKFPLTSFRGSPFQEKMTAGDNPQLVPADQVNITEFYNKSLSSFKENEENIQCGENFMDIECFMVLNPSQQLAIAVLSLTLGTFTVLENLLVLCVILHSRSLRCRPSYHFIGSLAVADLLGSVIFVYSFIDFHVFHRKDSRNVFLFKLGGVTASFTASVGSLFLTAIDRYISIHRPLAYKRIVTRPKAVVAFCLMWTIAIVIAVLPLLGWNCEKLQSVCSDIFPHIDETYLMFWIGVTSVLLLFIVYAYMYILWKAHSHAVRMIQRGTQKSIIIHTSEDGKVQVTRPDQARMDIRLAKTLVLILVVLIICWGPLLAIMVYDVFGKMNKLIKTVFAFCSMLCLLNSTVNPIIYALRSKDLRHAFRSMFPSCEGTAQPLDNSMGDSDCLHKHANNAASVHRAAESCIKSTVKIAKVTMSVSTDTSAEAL
Sequence of UniProt P18089 (whole entry, looked up): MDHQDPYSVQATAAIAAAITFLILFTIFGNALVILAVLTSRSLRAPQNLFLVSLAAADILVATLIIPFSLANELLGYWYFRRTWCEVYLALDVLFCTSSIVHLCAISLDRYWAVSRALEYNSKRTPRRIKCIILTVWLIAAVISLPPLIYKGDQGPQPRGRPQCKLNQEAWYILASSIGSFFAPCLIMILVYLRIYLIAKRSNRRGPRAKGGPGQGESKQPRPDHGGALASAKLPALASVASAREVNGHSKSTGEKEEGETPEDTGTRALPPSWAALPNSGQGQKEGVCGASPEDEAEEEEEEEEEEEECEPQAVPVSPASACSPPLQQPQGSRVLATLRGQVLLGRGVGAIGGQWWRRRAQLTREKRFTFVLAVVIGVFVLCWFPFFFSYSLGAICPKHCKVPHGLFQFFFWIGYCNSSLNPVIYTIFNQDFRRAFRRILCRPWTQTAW
Sequence of UniProt P21917 (whole entry, looked up): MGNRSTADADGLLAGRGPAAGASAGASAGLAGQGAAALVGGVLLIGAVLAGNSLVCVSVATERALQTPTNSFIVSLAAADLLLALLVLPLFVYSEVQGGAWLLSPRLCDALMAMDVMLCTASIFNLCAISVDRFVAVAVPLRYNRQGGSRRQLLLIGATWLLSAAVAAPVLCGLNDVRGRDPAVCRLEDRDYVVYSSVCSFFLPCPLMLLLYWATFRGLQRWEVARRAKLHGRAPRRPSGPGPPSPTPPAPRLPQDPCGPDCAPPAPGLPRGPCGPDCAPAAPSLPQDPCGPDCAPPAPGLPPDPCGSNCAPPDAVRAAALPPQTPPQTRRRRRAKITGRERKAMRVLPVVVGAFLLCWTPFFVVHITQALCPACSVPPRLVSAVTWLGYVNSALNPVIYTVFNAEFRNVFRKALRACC

| SMILES | target | assay | system | conditions | quantity | result |
| --- | --- | --- | --- | --- | --- | --- |
| CN1[C@@H]2CC[C@H]1C[C@@H](OC(=O)c1c[nH]c3ccccc13)C2 | CYP2D6 | inhibitor |  |  | Ki | 16 µM |
| CN1CCC[C@H]1c1cccnc1 | CYP2B6 | substrate |  |  | Km | 184 to 269 µM |
| O=C1OC(c2ccc(O)c(S(=O)(=O)O)c2)(c2ccc(O)c(S(=O)(=O)O)c2)c2c(Br)c(Br)c(Br)c(Br)c21 | OATP2B1, human | uptake, substrate | HEK293 OATP2B1 transfected |  | Km | 5.4 µM |
| Cc1ccc(OC(C)(C)C(=O)N[C@@H](C)[C@@H](Cc2ccc(OCCF)cc2)c2cccc(C#N)c2)nc1 [fluorine-18 labelled] | CNR1 (Homo sapiens, UniProt P21554) | PET | human, frontal cortex |  | VT | 22.4 ± 13.1 mL/cm³ |
| C1CO1 | glutathione S-transferase | glutathione conjugation, substrate | mouse, liver cytosol |  | Km | 10000 µM |
| Cc1cc(O)c2c(=O)c3c(O)cc(O)c4c5c(O)cc(O)c6c(=O)c7c(O)cc(C)c8c1c2c(c34)c(c78)c65 | UGT1A6 | enzyme activity, inhibitor | recombinant enzyme insect cells | with: serotonin glucuronidation | IC50 | 0.59 µM |
| Cc1ccc(OCC(=O)N(Cc2cccs2)c2ccn[nH]2)cc1 | human CYP3A4 | enzyme activity, inhibitor | human liver microsomes | with: midazolam | IC50 | 15 µM |
| C=CCN(CC=C)CCc1c[nH]c2ccc(OC)cc12 | DRD4 (Homo sapiens, UniProt P21917) |  |  |  | Ki | > 10 µM |
| CCCCCCCCCC(=O)N[C@@H](Cc1c[nH]c2ccccc12)C(=O)N[C@H](CC(N)=O)C(=O)N[C@@H](CC(=O)O)C(=O)N[C@@H]1C(=O)NCC(=O)N[C@@H](CCCN)C(=O)N[C@@H](CC(=O)O)C(=O)N[C@H](C)C(=O)N[C@@H](CC(=O)O)C(=O)NCC(=O)N[C@H](CO)C(=O)N[C@@H]([C@H](C)CC(=O)O)C(=O)N[C@@H](CC(=O)c2ccccc2N)C(=O)O[C@@H]1C | serum albumin | binding |  |  | Kd | 90.3 µM |
| C=CCN(CC=C)CCc1c[nH]c2ccccc12 | ADRA2B (Homo sapiens, UniProt P18089) | binding | cloned human receptor | with: [3H]rauwolscine | Ki | 0.305 µM |
| CNC(=O)c1cc2c(Oc3ccc(NC(=S)NC(=O)Cc4ccccc4)cc3F)ccnc2cc1OC | CYP3A, human | enzyme activity, reversible inhibitor |  | with: midazolam | IC50 | 4.49 µM |

A few entries again:
| SMILES | target | assay | system | conditions | quantity | result |
| --- | --- | --- | --- | --- | --- | --- |
| CNC(=O)c1cc2c(Oc3ccc(NC(=S)NC(=O)Cc4ccccc4)cc3F)ccnc2cc1OC | CYP3A, human | enzyme activity, reversible inhibitor |  | with: midazolam | IC50 | 4.49 µM |
